Published values of several laboratories.
Each line is one published result; not all experiments were run side by side. ± gives the spread as reported.

`CC(=O)Oc1ccccc1C(=O)[Se]CC(=O)Nc1cccc(C(F)(F)F)c1` has a CC50 of 48.7 µM (NCI60 ovarian subpanel; cytotoxicity, inhibitor; five-dose).
`CC(=O)NCSC[C@H](NC(=O)[C@@H]1CCCN1C(=O)[C@H](C)NC(=O)[C@@H](NC(=O)CNC(=O)[C@@H](NC(=O)[C@H](Cc1c[nH]c2ccccc12)NC(=O)[C@H](C)NC(=O)CNC(=O)[C@H](CO)NC(=O)[C@H](C)NC(=O)[C@@H]1CCCN1C(=O)[C@H](Cc1c[nH]c2ccccc12)NC(=O)[C@H](C)NC(=O)[C@H](C)NC(=O)[C@@H](N)Cc1ccc(O)cc1)[C@@H](C)O)[C@@H](C)O)C(=O)N[C@@H](CO)C(=O)N[C@@H](C)C(=O)NCC(=O)N[C@H](C(=O)NCCOCCOCCOCCOCCOCCOCCOCCOCCOCCOCCOCCOCCC(=O)N[C@@H](CS)C(N)=O)[C@@H](C)O` gave a selectivity ratio of 14 ± 2 (H1648; phage binding; 10 min, 37 °C; baseline: control phage).
The GI50 of `O=C(C[Se]C(=O)c1ccccc1)Nc1cccc(C(F)(F)F)c1` is reported as 2.34 µM (NCI60 prostate subpanel (PC-3, DU-145); cell growth, inhibitor; five-dose).
For `CC(C)CC(O)(CC(C)C)c1cn(C(=O)N2CCCC2)nn1`, the SILAC ratio was 0.56 (mouse T-cells; N-terminal labelling enrichment, measured: Samsn1 N-terminal peptides; 1 nM, 6 h, protein median; baseline: DMSO).
`CC(C)(C)C(=O)OCOP(=O)(OCOC(=O)C(C)(C)C)C1CCCN(O)C1=O` (stereo not shown) gave a GI50 of 0.433 µM (SR).
With `COc1ccccc1-c1ccncc1C(=O)Nc1nnc(OCc2ccc(Cl)cc2)s1` the colony survival was 17.6% (DLD-1 BRCA2-/-; 4 µM, mean of 3 replicates; baseline: untreated).
`COc1ccc2c(c1)c(CC(=O)[Se]CC(=O)Nc1cccc(C(F)(F)F)c1)c(C)n2C(=O)c1ccc(Cl)cc1` gave a CC50 of 7.42 µM (NCI60 prostate subpanel (PC-3, DU-145); cytotoxicity, inhibitor; five-dose).
For `CC(C)[C@H](NC(=O)[C@H](CCCNC(=N)N)NC(=O)[C@@H]1CCCN1C(=O)[C@@H](NC(=O)[C@H](C)NC(=O)[C@H](Cc1ccc(O)cc1)NC(=O)[C@H](CCC(N)=O)NC(=O)[C@H](CCCCN)NC(=O)[C@H](CCCNC(=N)N)NC(=O)[C@@H]1CCCN1C(=O)[C@H](CCC(=O)O)NC(=O)[C@@H](NC(=O)[C@H](C)N)[C@@H](C)O)[C@@H](C)O)C(=O)N[C@@H](Cc1ccccc1)C(=O)N[C@@H](Cc1c[nH]c2ccccc12)C(=O)N[C@H](C(=O)N[C@@H](CC(=O)O)C(=O)N[C@@H](C)C(=O)N1CCC[C@H]1C(=O)NCC(=O)NCCOCCOCCOCCOCCOCCOCCOCCOCCOCCOCCOCCOCCC(=O)N[C@@H](CS)C(N)=O)[C@@H](C)O`, the selectivity ratio was 44 ± 18 (HCC15; phage binding; baseline: targeting over control phage).
With `O=C(C[Se]C(=O)c1cccs1)Nc1cccc(C(F)(F)F)c1` the CC50 was 5.93 µM (NCI60 NSCLC subpanel; NCI60 five-dose screen).
The selectivity ratio of `CC(C)C[C@H](NC(=O)[C@H](CC(=O)O)NC(=O)CNC(=O)[C@@H](N)CCCNC(=N)N)C(=O)N[C@@H](C)C(=O)N[C@H](C(=O)N[C@@H](CC(C)C)C(=O)N[C@@H](CCCNC(=N)N)C(=O)N[C@@H](CCC(N)=O)C(=O)N[C@@H](CC(C)C)C(=O)N[C@@H](C)C(=O)N[C@@H](CCC(N)=O)C(=O)N[C@@H](CCC(=O)O)C(=O)N[C@@H](CC(=O)O)C(=O)NCC(=O)N[C@H](C(=O)N[C@H](C(=O)NCC(=O)N[C@H](C(=O)N[C@@H](CCCNC(=N)N)C(=O)NCCOCCOCCOCCOCCOCCOCCOCCOCCOCCOCCOCCOCCC(=O)N[C@@H](CS)C(N)=O)C(C)C)C(C)C)C(C)C)[C@@H](C)O` is reported as 25 ± 7.6 (MDA-MB-468 breast cancer; cell binding, phage binding, measured: output/input phage; 10 min, 37 °C; baseline: control phage).
With `O=C1NC2(CC2)COc2ncc(F)cc2[C@H]2COCCN2c2ccn3ncc1c3n2` the albumin was 44.8 ± 3.4 g/L (Sprague-Dawley rat, female, serum; oral, 20 mg/kg/day, end of recovery, 4-week repeated-dose toxicity).
For `Cc1cc(Oc2nc(N3CC[C@@H](c4ccncc4)C3)ncc2F)[nH]n1`, the IC50 was over 100 µM (IMR-90; cell proliferation; lung cancer).
`CSCC[C@H](NC(=O)[C@@H](NC(=O)[C@H](CCC(N)=O)NC(=O)[C@H](CO)NC(=O)[C@@H](N)C(C)C)[C@@H](C)O)C(=O)N[C@@H](CCCNC(=N)N)C(=O)N[C@@H](CCC(N)=O)C(=O)N[C@H](C(=O)N[C@@H](C)C(=O)N[C@H](C(=O)N1CCC[C@H]1C(=O)N[C@@H](CC(C)C)C(=O)N[C@@H](CC(C)C)C(=O)N[C@@H](Cc1c[nH]c2ccccc12)C(=O)N[C@@H](Cc1ccccc1)C(=O)N[C@@H](Cc1c[nH]c2ccccc12)C(=O)N[C@H](C(=O)NCC(=O)N[C@@H](CO)C(=O)N[C@@H](CC(C)C)C(=O)NCCOCCOCCOCCOCCOCCOCCOCCOCCOCCOCCOCCOCCC(=O)N[C@@H](CS)C(N)=O)[C@@H](C)O)C(C)C)[C@@H](C)O` gave a selectivity ratio of 16 ± 2.6 (HCC15; phage binding; baseline: targeting over control phage).
For `O=C(C[Se]C(=O)c1ccco1)Nc1cccc(C(F)(F)F)c1`, the CC50 was 66.6 µM (NCI60 ovarian subpanel; cytotoxicity, inhibitor; five-dose).
The EC50 of `Cc1cccc(-c2cccc(C)n2)n1.Cc1cccc(-c2cccc(C)n2)n1.F[P-](F)(F)(F)(F)F.F[P-](F)(F)(F)(F)F.[Ru+2].c1ccc2c(-c3nc4c5cccnc5c5ncccc5c4[nH]3)cccc2c1` is reported as 22.3 ± 0.6 µM (SK-MEL-28; cell viability; normoxia, with: green light 523 nm, 100 J/cm2).
`O=C(O)c1ccc(-c2nc(-c3ccccc3Cl)c3sccn23)cc1` — result for “CD61 fluorescence intensity”: 1.02 fold change (K562; megakaryocyte differentiation, flow cytometry; 0.01 mM, 48 h; baseline: untreated).
